Measured values collected from several papers.
Every numbered part comes from another study and shows a few of its results, in no order. Substitutions count along the parent as printed.

Sample 1
Target: TATA-box-binding protein 1 (TBP1, Arabidopsis thaliana, UniProt P28147, residues 1-200, full length assumed)
Method: protein-binding microarray
Molecule type: double-stranded DNA, one strand shown
Sample: in vitro
Concentration: not given
Setting: k-mer, scored over probes, only values ≥0.25
Direction: higher = stronger binding
Target sequence (chain): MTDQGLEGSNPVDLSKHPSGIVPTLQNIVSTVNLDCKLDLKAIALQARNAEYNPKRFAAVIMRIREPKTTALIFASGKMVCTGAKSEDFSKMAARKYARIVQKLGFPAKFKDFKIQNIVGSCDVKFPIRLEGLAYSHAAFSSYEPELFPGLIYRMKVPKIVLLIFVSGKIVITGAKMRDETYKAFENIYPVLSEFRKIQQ
Sequence | E-score
ACTATTA | 0.312
ATTATCA | 0.338
AAATCAT | 0.3
ATTAAAT | 0.432
GTCTTTA | 0.301
AACATAT | 0.294
AATATTG | 0.357
CATATTA | 0.377

Sample 2
Target: PABPC1L2, full length, GST fusion (mouse, UniProt A0ABA7IW68)
Method: RNAcompete
Molecule type: RNA
Sample: in vitro
Concentration: 20 nM
Setting: 7-mer, probes averaged, single round
Reference: mean of 7-mers
Direction: higher = stronger binding
Residues (chain): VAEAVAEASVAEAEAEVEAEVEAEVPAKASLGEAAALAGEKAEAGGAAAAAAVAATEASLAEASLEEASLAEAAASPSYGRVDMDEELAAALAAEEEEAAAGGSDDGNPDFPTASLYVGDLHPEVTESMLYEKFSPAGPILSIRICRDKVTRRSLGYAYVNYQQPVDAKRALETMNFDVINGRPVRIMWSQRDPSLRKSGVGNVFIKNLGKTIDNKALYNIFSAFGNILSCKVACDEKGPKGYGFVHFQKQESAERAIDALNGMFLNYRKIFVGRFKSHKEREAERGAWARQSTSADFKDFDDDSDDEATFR
Sequence | 7-mer Z-score
UCAUUCU | -0.436
AGUCGGA | 0.0859
CUAUGUC | -0.313
ACGAGGA | 0.0968
GAGCGUC | -0.249
UGGGGAA | 0.445
UAACGGA | -0.0772
CUGACUU | -0.28

Mixed results
P1: PafA, mature enzyme, eGFP fusion (Elizabethkingia meningoseptica, UniProt Q9KJX5); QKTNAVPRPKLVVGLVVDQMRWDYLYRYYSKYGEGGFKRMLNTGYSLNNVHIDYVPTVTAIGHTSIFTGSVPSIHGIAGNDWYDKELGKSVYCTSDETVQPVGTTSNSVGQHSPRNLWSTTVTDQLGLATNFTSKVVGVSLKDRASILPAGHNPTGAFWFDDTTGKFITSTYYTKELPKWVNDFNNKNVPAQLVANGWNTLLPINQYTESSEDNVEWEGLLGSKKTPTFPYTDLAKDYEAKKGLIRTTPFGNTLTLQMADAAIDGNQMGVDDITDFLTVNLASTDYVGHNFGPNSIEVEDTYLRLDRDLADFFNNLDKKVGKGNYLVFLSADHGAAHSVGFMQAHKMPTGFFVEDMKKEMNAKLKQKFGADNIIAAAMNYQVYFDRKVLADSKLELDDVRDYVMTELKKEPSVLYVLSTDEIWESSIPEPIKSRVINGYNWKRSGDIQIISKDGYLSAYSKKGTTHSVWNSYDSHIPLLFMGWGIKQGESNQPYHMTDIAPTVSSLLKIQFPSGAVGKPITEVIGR
P2: viral docking peptide; KGVKRKLFAEDSS; partner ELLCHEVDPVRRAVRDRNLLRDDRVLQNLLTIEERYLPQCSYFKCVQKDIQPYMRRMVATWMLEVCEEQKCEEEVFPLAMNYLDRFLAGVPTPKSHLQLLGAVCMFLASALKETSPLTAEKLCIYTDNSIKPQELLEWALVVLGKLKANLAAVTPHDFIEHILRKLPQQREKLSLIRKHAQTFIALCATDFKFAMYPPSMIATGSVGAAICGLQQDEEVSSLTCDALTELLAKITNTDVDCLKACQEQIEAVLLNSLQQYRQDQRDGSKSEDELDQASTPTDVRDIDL
Molecule | target | assay | test system | conditions | scale | measurement | value
PhoQ, residues 284 288 289 292 302 303 SIHMAM | PhoP, residues 12 14 15 18 19 NIMAP (Escherichia coli, UniProt P23836) | Sort-seq, refers to: YFP reporter | E. coli | PhoQ-PhoP variant library, added: 10 µM Mg2+ | reference: high Mg2+ state, higher = stronger signaling | fold induction | 0.67
P1 W469G | inorganic phosphate, free oxyanion | microfluidic competitive inhibition | in vitro, cell-free expressed | not given, derived from inhibition constants, unchanged parent 615000 nM | lower = stronger binding | phosphate dissociation constant | 120 µM
P2 F8G | CCND2, cyclin fold, Cln2 fusion (human) | yeast growth competition, sequencing | yeast | weak parent motif | reference: not given, higher = stronger binding | normalised enrichment score | 0.278
